Measured values from different studies.
Compare with care: the assays were run in different laboratories. Several values in a cell are separate wells, animals, samples, runs or records. ± marks the error that the study gave.

| SMILES | cell line | test | system | setting | how to read | quantity | result |
| --- | --- | --- | --- | --- | --- | --- | --- |
| CCCCn1cc(C(=O)O)c(=O)c2cc(F)c3c(nnn3-c3cccc(Cl)c3)c21 | HCT-116 | cell growth or viability, SRB | – | – | – | IC50 | 84.1 µM |
| Cc1ccc(/C=C/C(=O)O)cc1-c1cc2c(cc1C)C(C)(C)CCC2(C)C | TK6 | cytotoxicity, GreenScreen | – | together with: rat liver S9 | – | lowest effective concentration | 21.3 µg/mL |
| Cc1cccnc1Nc1c2c(nc3ccccc13)CCC(C)C2 (stereo not drawn) | HepG2 | MTT | – | 50 µM, 24 h, 10% FBS | – | inhibition | -10.1 ± 0.34% |
| CCCCn1cc(C(=O)O)c(=O)c2cc(F)c(Nc3cccc(Cl)c3)c(N)c21 | SW-620 | cell growth or viability, SRB | – | – | – | IC50 | < 10 µM and 9.19 µM and 9.2 µM |
| CC(C)C1=C[C@@]23CC[C@@H]4[C@](C)(CCC[C@@]4(C)C(=O)OCC#CCN4CCOCC4)[C@H]2C[C@@H]1[C@H]1C(=O)OC(=O)[C@H]13 | BHK-21-hACE2 | – | – | 20.0 µM, 48 (unit not given) | – | viability | 91% |
| CC(=O)OC[C@H]1O[C@@H](NC(=O)COc2ccc(-c3ccccc3)cc2)[C@H](OC(C)=O)[C@@H](OC(C)=O)[C@@H]1OC(C)=O | HEL fibroblasts | cell morphology | – | 3 days | – | minimal cytotoxic concentration | > 100 µM |
| NCCCC[C@H](NC(=O)[C@H](Cc1ccc(O)cc1)NC(=O)[C@H](CCCCN)NC(=O)[C@@H](N)Cc1c[nH]c2ccccc12)C(=O)NCC(=O)N[C@@H](Cc1c[nH]cn1)C(=O)N1CCC[C@H]1C(=O)NCC(=O)NCC(=O)N1CCC[C@H]1C(=O)N[C@@H](CCC(N)=O)C(=O)N[C@@H](CC(=O)O)C(=O)N[C@@H](CC(=O)O)C(=O)N[C@@H](CC(=O)O)C(=O)N[C@@H](CC(=O)O)C(=O)N[C@@H](CC(=O)O)C(=O)N[C@@H](CC(=O)O)C(=O)O | mouse bone marrow macrophages | CCK-8 | – | concentration not given, 24 h | – | cytotoxicity | not toxic |
| CSCC[C@H](N)C(=O)N[C@@H](CCC(=O)O)C(=O)N[C@H](C(=O)NCC(=O)N[C@@H](Cc1c[nH]c2ccccc12)C(=O)N[C@@H](Cc1ccc(O)cc1)C(=O)N[C@@H](CCCNC(N)=O)C(=O)N[C@@H](CO)C(=O)N1CCC[C@H]1C(=O)N[C@@H](Cc1ccccc1)C(=O)N[C@@H](CO)C(=O)N[C@@H](CCCNC(N)=O)C(=O)N[C@H](C(=O)N[C@H](C(=O)N[C@@H](Cc1c[nH]cn1)C(=O)N[C@@H](CC(C)C)C(=O)N[C@@H](Cc1ccc(O)cc1)C(=O)N[C@@H](CCCNC(=N)N)C(=O)N[C@@H](CC(N)=O)C(=O)NCC(=O)N[C@@H](CCCCN)C(N)=O)C(C)C)C(C)C)C(C)C | mouse bone marrow-derived dendritic cells | MTT | – | – | – | cytotoxic concentration | ≤ 10 µM |
| NCc1ccc(NC(=O)c2ccc3ccc(Cl)cc3c2O)cc1 | A549, uninfected | – | – | 10 µM, 48 h | – | cell death | 33% |
| O=C(/C=C/c1ccc(-c2ccccc2)cc1)NC(=O)N[C@@H]1O[C@H](CO)[C@@H](O)[C@H](O)[C@H]1O | HEL fibroblasts | cell morphology | – | 3 days | – | minimal cytotoxic concentration | > 100 µM |
| CC(C)(C)c1ccc(Nc2c3c(nc4ccccc24)CCCC3)cc1 | HepG2 | MTT | – | 50 µM, 24 h, 10% FBS | – | inhibition | -30.9 ± 1.54% |
| COc1ccc(N(C)C(=O)Oc2cc3oc4cc5c(c(O)c4c(=O)c3c(CC=C(C)C)c2OC)C=CC(C)(C)O5)cc1 | PC-12 | cell proliferation, MTT | – | 10 µM, 24 h | – | inhibition | 0% |
| N=C(N)NCCC[C@@H](NC(=O)[C@H](N)Cc1c[nH]c2ccccc12)C(=O)N[C@H](CCCCN)C(=O)N[C@H](Cc1c[nH]c2ccccc12)C(=O)N[C@H](CCCNC(=N)N)C(=O)N[C@H](CCCCN)C(=O)N[C@H](Cc1c[nH]c2ccccc12)C(=O)N[C@H](CCCNC(=N)N)C(=O)N[C@H](CCCCN)C(=O)N[C@H](Cc1c[nH]c2ccccc12)C(=O)N[C@H](CCCNC(=N)N)C(=O)N[C@H](CCCCN)C(N)=O | mouse red blood cells | – | – | 1 h, 37 °C, 8% v/v erythrocytes | – | HC10 | > 2050 µM |
| O=C(O[C@@H]1Cc2c(O)cc(O)cc2O[C@@H]1c1cc(O)c(O)c(O)c1)c1cc(O)c(O)c(O)c1 | U-87 MG | CCK-8 | – | 50 µM, 24 h | – | cell death | 39.1% |
| CC=C(C)C(=O)OC1C(O)C2OC(COC(=O)CCC(=O)CCCCCCC(CCCCC)OC3OC(C)C(O)C(O)C3O2)C1OC(=O)C=Cc1ccccc1 (stereo not drawn) | U-937 | cytotoxicity | – | – | – | IC50 | 0.0725 µM |
| N=C(N)NCCC[C@@H]1NC(=O)[C@H](Cc2csc3ccccc23)NC(=O)[C@@H](Cc2ccccc2)NC(=O)[C@H](Cc2ccccc2)NC(=O)[C@H](CCC(=O)NCCOCCOCC(=O)N[C@@H](CCCCNC(=O)c2ccc3c(c2)C(=O)OC32c3ccc4cc(O)ccc4c3Oc3c2ccc2cc(O)ccc32)C(N)=O)NC(=O)[C@@H](CCCNC(=N)N)NC(=O)[C@H](CCCNC(=N)N)NC(=O)[C@@H](CCCNC(=N)N)NC1=O | HeLa | – | – | 1.0 µM, 1% FBS | baseline: CPP12 | endosomal escape efficiency | 164 ± 24% |
| CC(=O)Oc1ccc(Cn2cc(F)c(=O)[nH]c2=O)cc1C1OC(c2ccc(Cl)cc2)=NN1C(C)=O (stereo not drawn) | HEL fibroblasts | cell morphology alteration | – | – | – | minimum cytotoxic concentration | 100 µM |
| CCc1nn(C)c2nc(-c3ccc(C(=O)O)cc3)nc(NCc3ccccc3)c12 | HCT-8 | MTS | – | 100 µM | – | cytotoxicity | not toxic |
| CC(=O)Oc1ccc(Cn2ccc(=O)[nH]c2=O)cc1C1OC(c2ccccc2)=NN1C(C)=O (stereo not drawn) | HEL fibroblasts | cell morphology, microscopy | – | – | – | minimum cytotoxic concentration | 100 µM |
| CC(C)C[C@@H]1NC(=O)[C@@H](Cc2c[nH]c3ccccc23)NC(=O)[C@H](CCCN)NC(=O)[C@@H](CO)NC(=O)[C@H](CCC(N)=O)NC(=O)[C@@H](CCC(=O)O)NC(=O)[C@H](CO)NC(=O)[C@@H](Cc2c[nH]c3ccccc23)NC1=O | erythrocytes | hemolysis | – | – | – | HD50 | > 500 µM |
| CCc1ccc([C@H](C)CC(=O)N[C@@H]2O[C@H](COC(C)=O)[C@@H](OC(C)=O)[C@H](OC(C)=O)[C@H]2OC(C)=O)cc1 | HEL fibroblasts | cell morphology | – | 3 days | – | minimal cytotoxic concentration | > 100 µM |
| CC[C@H](C)[C@@H]([C@@H](CC(=O)N1CCC[C@H]1[C@H](OC)[C@@H](C)C(=O)N[C@@H](Cc1ccccc1)C(=O)O)OC)N(C)C(=O)[C@@H](NC(=O)[C@@H](NC)C(C)C)C(C)C | MDA-MB-231 | cytotoxicity | – | – | – | EC50 | 0.17 ± 0.03 µM |
| Clc1ccc2nc3c(c(Nc4ccc5ccccc5n4)c2c1)CCCC3 | HepG2 | MTT | – | 50 µM, 24 h, 10% FBS | – | inhibition | 4.32 ± 0.14% |
| CC(=O)Oc1ccc(Cn2nc(C)c(=O)[nH]c2=O)cc1C1OC(c2cccc(Cl)c2)=NN1C(C)=O (stereo not drawn) | HEL fibroblasts | cell morphology alteration | – | – | – | minimum cytotoxic concentration | 100 µM |
| O=C1C(O)=C(CN2CCCC2)C(=O)c2ccccc21 | BGM (monkey kidney) | MTT | 10% FCS | 24 h | – | median lethal concentration | ≥ 3890 µM |
| CC(=O)N[C@@H](CC(=O)O)C(=O)N[C@@H](CCC(=O)O)C(=O)N[C@H](C(=O)N[C@@H](CC(=O)O)C(=O)NCC(=O)NCC(=O)NCC(=O)NCCNC(=O)OCC1c2ccccc2-c2ccccc21)C(C)C | HepG2 | – | – | 200 µM, 2 h, 37 °C | – | metabolized fraction | 48.7% |
| Cc1ccc(C(C)C)cc1.Clc1ccc2c(NCCNCc3ccccn3)ccnc2c1.[Cl-].[Cl][Ru+] | CHO | MTT | – | concentration not given, highest tested concentration | – | cytotoxicity | not toxic |
| COc1c(OC(=O)N(C)c2ccc(Cl)cc2)cc2oc3cc4c(c(O)c3c(=O)c2c1CC=C(C)C)C=CC(C)(C)O4 | PC-12 | cell proliferation, MTT | – | 10 µM, 24 h | – | inhibition | 0% |
| O=C(Cc1nc2cc(Cl)c(Cl)cc2nc1CC(=O)c1cccnc1)c1cccnc1 | CHO | resazurin | – | 48 h, 10% FBS | – | highest non-cytotoxic concentration | > 200 µg/mL |
| CCCCn1cc(C(=O)O)c(=O)c2cc(F)c(Nc3ccccc3Cl)c(N)c21 | HCT-116 | cell growth or viability, SRB | – | – | – | IC50 | 106 µM |

For quick reference, copied from above:
| SMILES | cell line | test | system | setting | how to read | quantity | result |
| --- | --- | --- | --- | --- | --- | --- | --- |
| CC(=O)OC[C@H]1O[C@@H](NC(=O)COc2ccc(-c3ccccc3)cc2)[C@H](OC(C)=O)[C@@H](OC(C)=O)[C@@H]1OC(C)=O | HEL fibroblasts | cell morphology | – | 3 days | – | minimal cytotoxic concentration | > 100 µM |
| NCCCC[C@H](NC(=O)[C@H](Cc1ccc(O)cc1)NC(=O)[C@H](CCCCN)NC(=O)[C@@H](N)Cc1c[nH]c2ccccc12)C(=O)NCC(=O)N[C@@H](Cc1c[nH]cn1)C(=O)N1CCC[C@H]1C(=O)NCC(=O)NCC(=O)N1CCC[C@H]1C(=O)N[C@@H](CCC(N)=O)C(=O)N[C@@H](CC(=O)O)C(=O)N[C@@H](CC(=O)O)C(=O)N[C@@H](CC(=O)O)C(=O)N[C@@H](CC(=O)O)C(=O)N[C@@H](CC(=O)O)C(=O)N[C@@H](CC(=O)O)C(=O)O | mouse bone marrow macrophages | CCK-8 | – | concentration not given, 24 h | – | cytotoxicity | not toxic |
